Results collected from several papers.
Protocols differ between the studies behind these lines. Several values in a cell are separate wells, animals, samples, runs or records. Numbers after ± are the reported error.
B1: EFR3A 721-791 (Homo sapiens, UniProt Q14156); chain SNTEEITFEALKKAIDTSGMEEQEKEKRRLVIEKFQKAPFEEIAAQCESKANLLHDRLAQILELTIRPPPS
B2: ANGPT1 283-498 (Homo sapiens, UniProt Q15389); chain FRDCADVYQAGFNKSGIYTIYINNMPEPKKVFCNMDVNGGGWTVIQHREDGSLDFQRGWKEYKMGFGNPSGEYWLGNEFIFAITSQRQYMLRIELMDWEGNRAYSQYDRFHIGNEKQNYRLYLKGHTGTAGKQSSLILHGADFSTKDADNDNCMCKCALMLTGGWWFDACGPSNLNGMFYTAGQNHGKLNGIKWHYFKGPSYSLRSTTMMIRPLDF
B3: CDC48A 1-190 (Arabidopsis thaliana, UniProt P54609); chain MSTPAESSDSKSKKDFSTAILERKKSPNRLVVDEAINDDNSVVSLHPATMEKLQLFRGDTILIKGKKRKDTVCIALADETCEEPKIRMNKVVRSNLRVRLGDVISVHQCPDVKYGKRVHILPVDDTVEGVTGNLFDAYLKPYFLEAYRPVRKGDLFLVRGGMRSVEFKVIETDPAEYCVVAPDTEIFCEG
B4: lat-1 32-136 (Caenorhabditis elegans, UniProt G5EDW2); chain TTDESGTISHTICDGEAAELSCPAGKVISIVLGNYGRFSVAVCLPDNDIVPSNINCQNHKTKSILEKKCNGDSMCYFTVDKKTFTEDPCPNTPKYLEVKYNCVVP
B5: PPARG AF-1 1-136 (Homo sapiens, UniProt P37231-1); pT75, pS112; chain MGETLGDSPIDPESDSFTDTLSANISQEMTMVDTEMPFWPTNFGISSVDLSVMEDHSHSFDIKPFTTVDFSSISTPHYEDIPFTRTDPVVADYKYDLKLQEYQSAIKVEPASPPYYSEKTQLYNKPHEEPSNSLMA
B6: BRAF kinase 442-724 V600E (Homo sapiens, UniProt P15056); sequence looked up; chain GRRDSSDDWEIPDGQITVGQRIGSGSFGTVYKGKWHGDVAVKMLNVTAPTPQQLQAFKNEVGVLRKTRHVNILLFMGYSTKPQLAIVTQWCEGSSLYHHLHIIETKFEMIKLIDIARQTAQGMDYLHAKSIIHRDLKSNNIFLHEDLTVKIGDFGLATEKSRWSGSHQFEQLSGSILWMAPEVIRMQDKNPYSFQSDVYAFGIVLYELMTGQLPYSNINNRDQIIFMVGRGYLSPDLSKVRSNCPKAMKRLMAECLKKKRDERPLFPQILASIELLARSLPKI
Sequence of UniProt Q02763 (whole entry, looked up): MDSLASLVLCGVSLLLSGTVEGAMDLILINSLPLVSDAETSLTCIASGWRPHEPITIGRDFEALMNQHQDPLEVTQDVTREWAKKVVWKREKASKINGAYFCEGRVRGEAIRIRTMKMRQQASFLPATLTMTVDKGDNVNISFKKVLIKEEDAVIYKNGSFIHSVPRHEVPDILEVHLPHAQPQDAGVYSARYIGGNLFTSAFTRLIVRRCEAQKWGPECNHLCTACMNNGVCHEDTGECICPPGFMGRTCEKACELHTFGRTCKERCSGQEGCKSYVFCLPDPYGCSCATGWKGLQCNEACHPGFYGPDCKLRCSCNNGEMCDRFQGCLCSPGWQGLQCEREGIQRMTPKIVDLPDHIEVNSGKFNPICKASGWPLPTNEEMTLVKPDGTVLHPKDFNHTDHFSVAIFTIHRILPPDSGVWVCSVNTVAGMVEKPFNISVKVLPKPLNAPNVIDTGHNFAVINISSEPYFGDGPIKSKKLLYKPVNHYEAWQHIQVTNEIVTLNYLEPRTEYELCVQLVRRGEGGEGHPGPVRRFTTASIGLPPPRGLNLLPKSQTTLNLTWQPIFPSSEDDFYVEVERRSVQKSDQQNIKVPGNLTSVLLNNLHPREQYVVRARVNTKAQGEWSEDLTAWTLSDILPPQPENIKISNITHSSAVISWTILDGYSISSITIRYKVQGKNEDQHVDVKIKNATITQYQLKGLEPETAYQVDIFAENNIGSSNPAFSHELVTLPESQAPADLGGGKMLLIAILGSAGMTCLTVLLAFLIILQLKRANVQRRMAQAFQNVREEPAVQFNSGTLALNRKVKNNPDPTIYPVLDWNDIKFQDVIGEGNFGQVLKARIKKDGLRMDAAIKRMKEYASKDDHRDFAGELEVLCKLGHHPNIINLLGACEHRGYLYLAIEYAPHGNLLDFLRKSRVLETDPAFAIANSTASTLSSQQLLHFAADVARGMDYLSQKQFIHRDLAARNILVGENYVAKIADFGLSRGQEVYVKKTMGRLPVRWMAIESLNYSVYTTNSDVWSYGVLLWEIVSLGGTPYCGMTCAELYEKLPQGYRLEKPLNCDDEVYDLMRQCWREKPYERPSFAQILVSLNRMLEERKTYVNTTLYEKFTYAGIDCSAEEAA
Sequence of UniProt P20827 (whole entry, looked up): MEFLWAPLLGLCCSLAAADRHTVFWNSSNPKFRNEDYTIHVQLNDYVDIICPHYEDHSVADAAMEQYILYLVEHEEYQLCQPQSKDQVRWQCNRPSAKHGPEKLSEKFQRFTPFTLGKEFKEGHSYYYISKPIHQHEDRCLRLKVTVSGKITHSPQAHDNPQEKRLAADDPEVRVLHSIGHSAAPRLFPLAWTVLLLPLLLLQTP
Sequence of UniProt P0CS90 (whole entry, looked up): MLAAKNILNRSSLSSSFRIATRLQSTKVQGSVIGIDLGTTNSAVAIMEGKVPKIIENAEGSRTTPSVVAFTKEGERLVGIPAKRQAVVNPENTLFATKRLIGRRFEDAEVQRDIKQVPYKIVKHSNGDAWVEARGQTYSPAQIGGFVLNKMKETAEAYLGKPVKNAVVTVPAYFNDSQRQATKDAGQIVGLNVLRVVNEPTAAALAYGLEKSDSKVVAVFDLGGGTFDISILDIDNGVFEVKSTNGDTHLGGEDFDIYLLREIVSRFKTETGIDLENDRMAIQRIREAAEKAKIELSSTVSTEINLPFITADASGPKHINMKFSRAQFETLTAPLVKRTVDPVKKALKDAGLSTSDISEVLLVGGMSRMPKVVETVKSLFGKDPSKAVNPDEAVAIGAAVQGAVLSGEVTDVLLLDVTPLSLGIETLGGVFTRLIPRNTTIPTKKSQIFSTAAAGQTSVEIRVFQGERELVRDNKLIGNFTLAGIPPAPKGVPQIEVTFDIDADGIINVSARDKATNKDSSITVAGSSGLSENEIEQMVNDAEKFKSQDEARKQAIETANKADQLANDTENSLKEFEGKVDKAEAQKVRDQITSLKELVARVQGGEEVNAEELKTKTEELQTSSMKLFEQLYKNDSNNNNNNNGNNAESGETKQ
Sequence of UniProt P97287 (whole entry, looked up): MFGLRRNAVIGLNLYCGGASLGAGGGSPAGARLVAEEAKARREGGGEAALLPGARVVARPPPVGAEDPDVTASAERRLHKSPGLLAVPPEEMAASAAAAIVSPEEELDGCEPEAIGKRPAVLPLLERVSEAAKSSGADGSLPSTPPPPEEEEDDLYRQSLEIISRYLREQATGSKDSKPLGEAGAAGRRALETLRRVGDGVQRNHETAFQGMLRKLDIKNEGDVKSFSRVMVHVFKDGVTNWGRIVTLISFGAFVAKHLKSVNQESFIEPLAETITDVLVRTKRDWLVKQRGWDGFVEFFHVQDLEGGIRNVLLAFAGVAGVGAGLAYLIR
Sequence of UniProt F4IXN6 (whole entry, looked up): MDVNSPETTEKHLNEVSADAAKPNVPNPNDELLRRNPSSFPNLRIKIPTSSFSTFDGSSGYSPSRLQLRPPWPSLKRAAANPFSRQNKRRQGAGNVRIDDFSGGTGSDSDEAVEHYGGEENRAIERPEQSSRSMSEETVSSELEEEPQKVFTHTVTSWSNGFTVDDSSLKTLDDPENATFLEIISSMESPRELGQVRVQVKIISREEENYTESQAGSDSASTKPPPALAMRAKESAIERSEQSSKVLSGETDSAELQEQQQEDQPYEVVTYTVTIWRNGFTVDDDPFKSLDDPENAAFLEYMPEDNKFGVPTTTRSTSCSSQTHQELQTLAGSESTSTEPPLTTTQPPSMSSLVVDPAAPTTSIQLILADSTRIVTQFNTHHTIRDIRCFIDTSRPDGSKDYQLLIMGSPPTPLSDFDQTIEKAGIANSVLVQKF

`EEEWAREIGAQLRRAGDDLNAQYERRR (PUMA residues 130-156 M144A/A145G; N-acetyl, C-terminal amide)` gave a koff of 0.0002 ± 2e-05 s⁻¹ (Mcl1 152-308 (Mus musculus, UniProt P97287); SPR; peptide).
The koff of `CALLLSAPRR (GOT2 (Gallus gallus); fluorescein label)` is reported as 0.0025 s⁻¹ (SSC1 mature (Saccharomyces cerevisiae, UniProt P0CS90); FP; peptide).
For `B1 (EFR3A 721-791)`, the koff was 1.68e-05 s⁻¹ (TTC7B/FAM126A FAM126A 1-308; BLI).
`B2 (ANGPT1 283-498)` has a koff of 0.0811 s⁻¹ (TEK 23-748 (Homo sapiens, UniProt Q02763); SPR).
The koff of `B3 (CDC48A 1-190)` is reported as 0.00036 s⁻¹ (PUX6 (Arabidopsis thaliana, UniProt F4IXN6); BLI; 25 °C).
`EKPIDSETKM` gave a binding intensity of -0.149 (human MAGI1-3/6 PDZ construct (MBP fusion); automated holdup; peptide, crude extract; concentration not given, corrected by standard peak, unit not given; relative to: biotin control resin, higher = stronger binding).
Under “HLA class I surface increase”, `QHVKITDFGR` is recorded as 2.2% (HLA class I histocompatibility antigen, A alpha chain, allele A*24:02 (Homo sapiens, UniProt P04439); MHC class I stabilisation, flow cytometry; peptide, TAP2-knockout TISI monoallelic cells; 25 µM, 18 h, 37 °C, with: β2-microglobulin 3 µg/mL; relative to: DMSO).
`GSGAGRETEV` gave a binding intensity of 0.149 (human MAGI1-3/6 PDZ construct (MBP fusion); automated holdup; peptide, crude extract; concentration not given, uncorrected, unit not given; relative to: biotin control resin, higher = stronger binding).
The koff of `B4 (lat-1 32-136)` is reported as 0.31 s⁻¹ (tol-1 extracellular region (Caenorhabditis elegans); SPR).
With `EPHA2 fragment, auto-phosphorylated (Homo sapiens)` the koff was 0.00933 s⁻¹ (EFNA1 (Homo sapiens, UniProt P20827); BLI; apparent).
`B5 (PPARG AF-1 1-136)` has a koff of 659 s⁻¹ and 1430 s⁻¹ (PIN1 (Homo sapiens, UniProt Q13526); NMR).
The koff of `B6 (BRAF kinase 442-724 V600E)` is reported as 0.00067 s⁻¹ (MAP2K1 (Homo sapiens, UniProt Q02750); BLI).
`ptsH fragment (Escherichia coli) (sequence not shown)` gave a koff of 4800 s⁻¹ (ptsI fragment (Escherichia coli); NMR relaxation dispersion; with Ficoll-70).
